Experimental data from different studies.
Every numbered part comes from another study and shows a few of its results, in no order. Several values in a cell are separate wells, animals, samples, runs or records.
UniProt O14757, sequence (whole entry, looked up): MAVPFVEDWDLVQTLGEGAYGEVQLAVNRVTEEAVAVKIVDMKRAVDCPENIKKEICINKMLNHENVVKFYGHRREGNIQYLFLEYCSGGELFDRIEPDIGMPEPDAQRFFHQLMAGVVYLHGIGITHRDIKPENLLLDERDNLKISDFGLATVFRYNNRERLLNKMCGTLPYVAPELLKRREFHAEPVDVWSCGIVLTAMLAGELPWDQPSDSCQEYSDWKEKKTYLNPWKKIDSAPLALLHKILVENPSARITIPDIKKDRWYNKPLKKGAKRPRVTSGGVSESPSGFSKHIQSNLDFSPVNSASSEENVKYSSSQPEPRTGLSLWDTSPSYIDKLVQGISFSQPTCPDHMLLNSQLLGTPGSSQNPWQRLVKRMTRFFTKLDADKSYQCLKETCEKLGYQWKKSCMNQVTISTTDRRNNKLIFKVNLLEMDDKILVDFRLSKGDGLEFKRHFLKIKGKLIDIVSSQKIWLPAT
UniProt Q05655, sequence (whole entry, looked up): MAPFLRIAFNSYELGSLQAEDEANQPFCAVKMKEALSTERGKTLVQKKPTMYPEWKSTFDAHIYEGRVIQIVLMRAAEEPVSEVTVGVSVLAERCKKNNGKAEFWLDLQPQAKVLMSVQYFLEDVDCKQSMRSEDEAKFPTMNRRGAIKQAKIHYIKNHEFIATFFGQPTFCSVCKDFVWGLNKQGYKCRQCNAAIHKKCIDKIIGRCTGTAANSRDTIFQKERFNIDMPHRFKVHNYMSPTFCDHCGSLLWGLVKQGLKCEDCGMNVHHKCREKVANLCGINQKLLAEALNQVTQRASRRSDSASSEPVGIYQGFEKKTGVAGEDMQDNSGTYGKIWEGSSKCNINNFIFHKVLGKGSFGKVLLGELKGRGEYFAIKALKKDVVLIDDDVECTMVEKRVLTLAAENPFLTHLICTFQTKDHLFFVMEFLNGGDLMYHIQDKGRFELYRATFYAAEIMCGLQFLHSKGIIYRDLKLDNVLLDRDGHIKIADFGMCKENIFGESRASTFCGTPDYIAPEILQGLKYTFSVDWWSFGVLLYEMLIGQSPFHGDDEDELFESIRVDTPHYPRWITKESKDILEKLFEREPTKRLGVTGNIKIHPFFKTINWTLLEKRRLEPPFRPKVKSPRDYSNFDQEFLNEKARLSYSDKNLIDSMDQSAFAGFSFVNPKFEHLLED
UniProt P41743, sequence (whole entry, looked up): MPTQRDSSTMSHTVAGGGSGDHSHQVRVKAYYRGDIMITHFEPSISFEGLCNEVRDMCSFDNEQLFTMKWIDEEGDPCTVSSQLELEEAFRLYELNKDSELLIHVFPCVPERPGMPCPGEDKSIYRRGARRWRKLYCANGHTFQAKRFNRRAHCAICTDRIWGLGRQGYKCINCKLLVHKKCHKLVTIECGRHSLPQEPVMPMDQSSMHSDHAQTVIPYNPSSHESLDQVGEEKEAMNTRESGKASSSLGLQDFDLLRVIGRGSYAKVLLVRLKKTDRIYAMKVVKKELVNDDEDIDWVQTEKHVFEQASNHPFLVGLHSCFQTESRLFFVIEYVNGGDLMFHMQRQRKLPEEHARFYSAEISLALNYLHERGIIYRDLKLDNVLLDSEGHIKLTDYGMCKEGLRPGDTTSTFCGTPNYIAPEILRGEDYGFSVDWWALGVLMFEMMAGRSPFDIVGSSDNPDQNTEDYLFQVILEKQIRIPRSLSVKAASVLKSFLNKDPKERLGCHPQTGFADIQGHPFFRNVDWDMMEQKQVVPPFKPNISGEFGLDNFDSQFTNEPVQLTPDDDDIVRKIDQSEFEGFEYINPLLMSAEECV
UniProt P48729, sequence (whole entry, looked up): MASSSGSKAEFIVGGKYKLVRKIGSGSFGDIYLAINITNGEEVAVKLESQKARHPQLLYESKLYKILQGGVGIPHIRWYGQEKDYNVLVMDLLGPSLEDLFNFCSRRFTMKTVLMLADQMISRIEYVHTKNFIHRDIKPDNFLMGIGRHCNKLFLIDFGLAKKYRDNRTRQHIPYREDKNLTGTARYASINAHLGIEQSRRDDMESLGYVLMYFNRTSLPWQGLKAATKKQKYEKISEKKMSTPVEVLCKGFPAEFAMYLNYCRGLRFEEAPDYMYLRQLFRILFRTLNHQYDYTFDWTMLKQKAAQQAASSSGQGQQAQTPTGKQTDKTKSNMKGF
UniProt P50750, sequence (whole entry, looked up): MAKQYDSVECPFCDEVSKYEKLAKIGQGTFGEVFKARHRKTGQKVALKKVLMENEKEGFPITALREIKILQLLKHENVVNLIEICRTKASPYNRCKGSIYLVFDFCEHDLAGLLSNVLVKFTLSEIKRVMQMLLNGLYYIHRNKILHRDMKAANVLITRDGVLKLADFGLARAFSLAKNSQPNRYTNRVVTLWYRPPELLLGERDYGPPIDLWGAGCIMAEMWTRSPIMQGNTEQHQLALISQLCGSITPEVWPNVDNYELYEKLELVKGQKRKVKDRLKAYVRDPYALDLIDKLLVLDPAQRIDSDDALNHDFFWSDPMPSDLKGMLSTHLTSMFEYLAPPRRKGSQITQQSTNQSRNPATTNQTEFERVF
UniProt P68400, sequence (whole entry, looked up): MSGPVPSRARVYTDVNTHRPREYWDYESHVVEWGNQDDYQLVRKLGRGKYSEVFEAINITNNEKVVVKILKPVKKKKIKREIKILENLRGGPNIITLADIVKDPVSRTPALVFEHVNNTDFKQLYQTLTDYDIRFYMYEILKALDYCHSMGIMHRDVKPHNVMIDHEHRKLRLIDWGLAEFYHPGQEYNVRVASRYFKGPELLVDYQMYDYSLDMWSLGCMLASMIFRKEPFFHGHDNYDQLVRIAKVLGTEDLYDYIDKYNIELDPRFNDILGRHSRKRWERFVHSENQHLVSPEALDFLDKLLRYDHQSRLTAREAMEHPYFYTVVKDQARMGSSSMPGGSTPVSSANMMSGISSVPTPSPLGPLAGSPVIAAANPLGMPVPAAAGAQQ
UniProt Q12851, sequence (whole entry, looked up): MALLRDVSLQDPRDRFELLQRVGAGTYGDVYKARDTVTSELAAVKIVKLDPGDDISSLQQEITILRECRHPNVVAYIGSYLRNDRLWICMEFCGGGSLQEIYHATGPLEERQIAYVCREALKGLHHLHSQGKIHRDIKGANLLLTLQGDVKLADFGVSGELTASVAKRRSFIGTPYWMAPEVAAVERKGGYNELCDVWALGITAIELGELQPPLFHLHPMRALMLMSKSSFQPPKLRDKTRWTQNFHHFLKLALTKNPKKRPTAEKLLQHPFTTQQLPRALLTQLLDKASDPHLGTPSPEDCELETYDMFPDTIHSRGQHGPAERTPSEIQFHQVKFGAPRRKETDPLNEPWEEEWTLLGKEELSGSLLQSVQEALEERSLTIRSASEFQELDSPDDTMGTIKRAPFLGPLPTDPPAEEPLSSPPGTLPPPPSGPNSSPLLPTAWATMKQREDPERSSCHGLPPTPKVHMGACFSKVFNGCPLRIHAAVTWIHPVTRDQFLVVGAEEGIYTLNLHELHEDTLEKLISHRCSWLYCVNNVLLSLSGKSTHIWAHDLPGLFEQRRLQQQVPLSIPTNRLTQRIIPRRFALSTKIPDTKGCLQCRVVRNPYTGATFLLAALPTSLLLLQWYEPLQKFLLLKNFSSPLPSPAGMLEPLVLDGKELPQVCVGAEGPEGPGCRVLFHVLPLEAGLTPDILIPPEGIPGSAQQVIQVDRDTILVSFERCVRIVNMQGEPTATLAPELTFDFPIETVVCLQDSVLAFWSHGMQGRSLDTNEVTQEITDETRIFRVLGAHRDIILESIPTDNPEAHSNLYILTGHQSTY
UniProt Q9HBH9, sequence (whole entry, looked up): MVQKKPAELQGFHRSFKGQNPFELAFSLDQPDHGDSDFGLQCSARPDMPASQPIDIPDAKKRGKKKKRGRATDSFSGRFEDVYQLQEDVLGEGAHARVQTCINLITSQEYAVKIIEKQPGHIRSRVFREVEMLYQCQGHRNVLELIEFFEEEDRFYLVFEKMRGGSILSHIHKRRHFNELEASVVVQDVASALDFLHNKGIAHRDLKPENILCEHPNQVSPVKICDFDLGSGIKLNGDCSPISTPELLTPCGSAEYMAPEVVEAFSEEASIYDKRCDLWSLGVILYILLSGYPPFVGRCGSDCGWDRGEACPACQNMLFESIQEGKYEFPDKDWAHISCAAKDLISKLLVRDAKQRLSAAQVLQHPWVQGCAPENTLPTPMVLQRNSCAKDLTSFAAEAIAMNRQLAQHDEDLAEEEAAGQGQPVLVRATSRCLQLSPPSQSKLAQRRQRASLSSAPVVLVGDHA
UniProt P52564, sequence (whole entry, looked up): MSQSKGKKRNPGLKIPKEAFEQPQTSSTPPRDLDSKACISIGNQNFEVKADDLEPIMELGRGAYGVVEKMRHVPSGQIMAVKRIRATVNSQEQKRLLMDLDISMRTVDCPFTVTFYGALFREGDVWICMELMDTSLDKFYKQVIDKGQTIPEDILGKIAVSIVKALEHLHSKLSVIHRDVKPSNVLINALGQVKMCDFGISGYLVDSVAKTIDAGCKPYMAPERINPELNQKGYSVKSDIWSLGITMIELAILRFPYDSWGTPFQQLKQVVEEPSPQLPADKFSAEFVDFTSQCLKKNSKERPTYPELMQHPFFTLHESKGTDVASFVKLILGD

Sample 1
Organism: Sarcocystis neurona
Read-out: parasite growth
Concentration: 10 µM
Setting: secondary screen
| Structure (SMILES) | inhibition [%] |
| --- | --- |
| CC(C)OC(=O)CCC/C=C\C[C@@H]1[C@@H](CC[C@@H](O)CCc2ccccc2)[C@H](O)C[C@@H]1O | -28.7 |
| CCOC(=O)CCC(=O)O[C@H]1[C@H](O[C@@H]2[C@@H](C)[C@H](O[C@H]3C[C@@](C)(OC)[C@@H](O)[C@H](C)O3)[C@@H](C)C(=O)O[C@H](CC)[C@@](C)(O)[C@H](O)[C@@H](C)C(=O)[C@H](C)C[C@@]2(C)O)O[C@H](C)C[C@@H]1N(C)C | 19.7 |
| Nc1ncn([C@@H]2O[C@H](CO)[C@@H](O)[C@H]2O)c(=O)n1 | -38.6 |
| CCOC(=O)C1=C(C)NC(C)=C(C(=O)OCC)C1c1ccccc1/C=C/C(=O)OC(C)(C)C | -6.2 |
| CO[C@H]1O[C@@H]2O[C@@]3(C)CC[C@H]4[C@H](C)CC[C@@H]([C@H]1C)[C@@]24OO3 | 54.8 |
| CC(C)(C)C(O)/C=C/c1ccc2c(c1)OCO2 (stereo not drawn) | -41.2 |

Sample 2
Cell line: mouse MPNST tumor cells
Technique: high-content nuclear imaging
Measured: cell number
Concentration: 10 µM
Time: 12 h
Setting: mean of 2 replicates
Relative to: plate mean
Reading: higher = more cells
| Compound | nuclei count |
| --- | --- |
| CCc1nc(N)nc(N)c1-c1ccc(Cl)cc1 | -0.865 z-score and -2.69 z-score |
| Fc1ccccc1CNCc1ccc(-c2ccnc3[nH]ccc23)cc1 | 0.459 z-score |
| OCCN1CCN(CCCN2c3ccccc3C=Cc3ccccc32)CC1 | 1.57 z-score |
| O=C(Nc1nc2ccc(NC(=O)C34CC5CC(CC(C5)C3)C4)cc2s1)c1ccccc1 | -5.84 z-score |
| CCOc1ccc(-c2nc(-c3cccc4c3CCC4NCCO)no2)cc1OCC (stereo not drawn) | -5.74 z-score |
| CNC(=O)c1c(I)c(C(=O)NCC(=O)Nc2c(I)c(C(=O)O)c(I)c(C(=O)NCCO)c2I)c(I)c(N(C)C(C)=O)c1I | 1.86 z-score |

Sample 3
SMILES: NCCNc1ncc(C(N)=O)c(Nc2cccc(C(F)(F)F)c2)n1
Read-out: enzyme activity
Mode: inhibitor
Concentration: 0.5 µM
Relative to: control
| target | remaining activity |
| --- | --- |
| CSNK1A1 (Homo sapiens, UniProt P48729) | 74.8% |
| MAP4K2 (Homo sapiens, UniProt Q12851) | 29.8% |
| MKNK2 (Homo sapiens, UniProt Q9HBH9) | 77.6% |
| LYN (Homo sapiens, UniProt P07948) | 74.5% |
| MAP2K6 (Homo sapiens, UniProt P52564) | 114% |
| KIT (Homo sapiens, UniProt P10721) | 94.7% |
| PRKG1 (Homo sapiens, UniProt Q13976) | 68.7% |
| CSNK2A1 (Homo sapiens, UniProt P68400) | 91.2% |
| Cyclin-dependent kinase 9, with cyclin T1 (CDK9, Homo sapiens, UniProt P50750) | 82% |
| LRRK2 (Homo sapiens, UniProt Q5S007) | 42.1% |
| PRKCD (Homo sapiens, UniProt Q05655) | 69.7% |
| PRKCI (Homo sapiens, UniProt P41743) | 98.7% |
| CHEK1 (Homo sapiens, UniProt O14757) | 68.7% |
| IRAK4 (Homo sapiens, UniProt Q9NWZ3) | 91.2% |

Sample 4
Target: 5-hydroxytryptamine receptor 7 (HTR7, Homo sapiens, UniProt P34969)
UniProt P34969, sequence (whole entry, looked up): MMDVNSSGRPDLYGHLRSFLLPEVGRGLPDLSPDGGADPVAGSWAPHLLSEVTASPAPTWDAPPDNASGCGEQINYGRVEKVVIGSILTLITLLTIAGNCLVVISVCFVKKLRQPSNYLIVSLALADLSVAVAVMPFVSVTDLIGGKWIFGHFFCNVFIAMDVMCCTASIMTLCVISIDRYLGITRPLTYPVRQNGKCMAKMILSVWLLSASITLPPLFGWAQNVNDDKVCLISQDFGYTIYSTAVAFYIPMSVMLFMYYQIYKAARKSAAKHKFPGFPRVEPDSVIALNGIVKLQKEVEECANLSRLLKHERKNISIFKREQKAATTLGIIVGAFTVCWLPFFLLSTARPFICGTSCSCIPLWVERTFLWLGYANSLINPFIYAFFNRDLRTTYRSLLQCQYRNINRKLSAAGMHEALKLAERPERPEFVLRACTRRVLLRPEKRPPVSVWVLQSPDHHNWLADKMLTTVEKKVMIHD
Read-out: ligand displacement
Concentration: 10 µM
| SMILES | inhibition |
| --- | --- |
| Cc1c(NC(=O)c2cc(C(N)=O)nc3cc(F)ccc23)c(C(F)(F)F)nn1Cc1ccc(C#N)cc1 | 2.31% |
| CN([C@@H]1CCc2c(CC(=O)O)c3ccccc3n2C1)S(=O)(=O)c1ccc(F)cc1 | 4.11% |
| CNC(=O)Nc1ccc2c(c1)CC[C@]21OC(=O)N(CC(=O)N(Cc2ccc(F)cc2)[C@@H](C)C(F)(F)F)C1=O | 7.83% |
| Nc1nc(NCc2ccccc2)nc(-c2ccccc2CO)n1 | 43.9% |
| CN(C)c1ncnc(-c2ccc3nc(Nc4cc(CN5CCN(C(=O)CC(F)(F)F)CC5)ccn4)[nH]c3c2)c1Cl | 13.4% |
| CN1CCN(c2ccnc(NCCc3ccccc3)n2)CC1 | 92.4% |
| COc1cc(N[C@@H]2CCCC[C@]2(O)C(F)(F)F)ccc1F | -11.5% |

Excerpt of the above (sample 3):
| target | remaining activity |
| --- | --- |
| MAP4K2 (Homo sapiens, UniProt Q12851) | 29.8% |
| CHEK1 (Homo sapiens, UniProt O14757) | 68.7% |
| KIT (Homo sapiens, UniProt P10721) | 94.7% |
| PRKG1 (Homo sapiens, UniProt Q13976) | 68.7% |
